Earlier results that unrelated publications cite.
Compare with care: the assays were run in different laboratories. ± gives the spread as reported.
gag-pol integrase: Gag-Pol polyprotein, integrase (gag-pol, Human immunodeficiency virus 1, UniProt P12497)
pyrG: pyrG (Escherichia coli, UniProt P0A7E5)
Chain of UniProt P0A7E5 (whole entry, looked up): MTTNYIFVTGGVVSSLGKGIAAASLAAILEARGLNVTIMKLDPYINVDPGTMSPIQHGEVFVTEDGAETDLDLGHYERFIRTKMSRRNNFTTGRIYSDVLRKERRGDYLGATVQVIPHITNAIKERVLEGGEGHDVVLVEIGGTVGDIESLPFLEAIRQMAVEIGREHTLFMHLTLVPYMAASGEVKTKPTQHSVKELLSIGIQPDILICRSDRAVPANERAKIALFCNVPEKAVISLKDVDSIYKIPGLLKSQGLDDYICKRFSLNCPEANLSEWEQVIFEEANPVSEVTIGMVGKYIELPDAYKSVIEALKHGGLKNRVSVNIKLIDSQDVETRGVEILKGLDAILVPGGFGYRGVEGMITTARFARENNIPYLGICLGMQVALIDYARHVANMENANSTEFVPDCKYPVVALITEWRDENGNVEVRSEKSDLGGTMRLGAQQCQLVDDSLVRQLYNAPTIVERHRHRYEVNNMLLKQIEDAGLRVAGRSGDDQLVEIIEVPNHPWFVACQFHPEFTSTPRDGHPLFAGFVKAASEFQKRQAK
gag-pol: Gag-Pol polyprotein (gag-pol, Human immunodeficiency virus 1, UniProt P12497)
TACR1: Substance-P receptor (TACR1, Homo sapiens, UniProt P25103)
Chain of UniProt P25103 (whole entry, looked up): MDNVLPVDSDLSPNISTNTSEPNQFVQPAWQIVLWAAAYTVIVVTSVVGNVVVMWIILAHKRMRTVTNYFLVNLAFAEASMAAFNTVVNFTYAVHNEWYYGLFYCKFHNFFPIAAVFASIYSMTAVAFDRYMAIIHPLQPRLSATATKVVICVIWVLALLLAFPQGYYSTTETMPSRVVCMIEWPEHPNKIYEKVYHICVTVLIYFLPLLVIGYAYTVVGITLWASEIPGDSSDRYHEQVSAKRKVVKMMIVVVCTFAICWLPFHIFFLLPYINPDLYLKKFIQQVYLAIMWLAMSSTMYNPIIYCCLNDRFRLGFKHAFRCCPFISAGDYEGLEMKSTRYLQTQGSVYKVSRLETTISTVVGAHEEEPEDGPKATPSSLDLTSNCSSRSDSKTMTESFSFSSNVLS
Chain of UniProt P22303 (whole entry, looked up): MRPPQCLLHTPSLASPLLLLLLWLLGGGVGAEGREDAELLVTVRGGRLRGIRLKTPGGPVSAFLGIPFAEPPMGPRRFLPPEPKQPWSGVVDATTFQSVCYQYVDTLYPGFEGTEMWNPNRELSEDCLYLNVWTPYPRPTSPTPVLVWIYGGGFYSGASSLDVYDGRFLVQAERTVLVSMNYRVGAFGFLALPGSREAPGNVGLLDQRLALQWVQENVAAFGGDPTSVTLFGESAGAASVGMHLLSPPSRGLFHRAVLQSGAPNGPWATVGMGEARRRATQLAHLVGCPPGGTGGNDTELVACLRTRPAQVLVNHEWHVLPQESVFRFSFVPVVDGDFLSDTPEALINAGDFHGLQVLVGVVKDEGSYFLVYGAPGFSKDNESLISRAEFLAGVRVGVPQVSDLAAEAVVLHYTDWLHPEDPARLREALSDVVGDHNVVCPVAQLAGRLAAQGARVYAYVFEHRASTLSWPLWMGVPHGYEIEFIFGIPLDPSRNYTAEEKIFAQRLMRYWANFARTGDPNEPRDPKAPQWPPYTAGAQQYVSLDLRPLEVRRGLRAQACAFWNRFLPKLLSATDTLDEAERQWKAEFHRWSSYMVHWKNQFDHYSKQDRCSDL
Chain of UniProt O15245 (whole entry, looked up): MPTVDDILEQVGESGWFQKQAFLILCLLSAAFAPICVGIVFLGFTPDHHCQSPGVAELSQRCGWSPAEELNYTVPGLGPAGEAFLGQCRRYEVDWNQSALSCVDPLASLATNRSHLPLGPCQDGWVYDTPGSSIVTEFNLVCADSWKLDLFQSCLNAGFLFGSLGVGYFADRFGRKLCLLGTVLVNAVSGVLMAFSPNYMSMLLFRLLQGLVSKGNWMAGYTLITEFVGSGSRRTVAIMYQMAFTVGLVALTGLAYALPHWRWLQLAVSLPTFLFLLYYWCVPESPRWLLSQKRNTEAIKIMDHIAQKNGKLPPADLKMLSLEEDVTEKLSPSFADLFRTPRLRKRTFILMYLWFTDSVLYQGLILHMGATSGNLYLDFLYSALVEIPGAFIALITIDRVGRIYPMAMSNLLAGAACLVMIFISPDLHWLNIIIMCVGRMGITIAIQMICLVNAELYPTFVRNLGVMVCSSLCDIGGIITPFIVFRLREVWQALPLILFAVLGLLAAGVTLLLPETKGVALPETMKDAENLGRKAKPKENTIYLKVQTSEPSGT
Chain of UniProt Q05941 (whole entry, looked up): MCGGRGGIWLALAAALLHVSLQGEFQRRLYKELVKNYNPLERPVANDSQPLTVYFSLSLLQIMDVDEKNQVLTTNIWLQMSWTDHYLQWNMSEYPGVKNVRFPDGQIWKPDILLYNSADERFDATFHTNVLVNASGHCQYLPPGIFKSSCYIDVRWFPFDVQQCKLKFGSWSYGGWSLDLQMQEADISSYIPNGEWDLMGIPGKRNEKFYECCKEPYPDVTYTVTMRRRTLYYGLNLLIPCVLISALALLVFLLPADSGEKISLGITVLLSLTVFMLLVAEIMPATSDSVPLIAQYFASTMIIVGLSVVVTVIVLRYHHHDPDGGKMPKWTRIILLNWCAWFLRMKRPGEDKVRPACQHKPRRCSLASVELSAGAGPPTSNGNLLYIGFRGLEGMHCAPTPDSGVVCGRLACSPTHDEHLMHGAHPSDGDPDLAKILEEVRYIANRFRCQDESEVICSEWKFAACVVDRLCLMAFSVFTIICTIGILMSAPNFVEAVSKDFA
Chain of UniProt Q96FL8 (whole entry, looked up): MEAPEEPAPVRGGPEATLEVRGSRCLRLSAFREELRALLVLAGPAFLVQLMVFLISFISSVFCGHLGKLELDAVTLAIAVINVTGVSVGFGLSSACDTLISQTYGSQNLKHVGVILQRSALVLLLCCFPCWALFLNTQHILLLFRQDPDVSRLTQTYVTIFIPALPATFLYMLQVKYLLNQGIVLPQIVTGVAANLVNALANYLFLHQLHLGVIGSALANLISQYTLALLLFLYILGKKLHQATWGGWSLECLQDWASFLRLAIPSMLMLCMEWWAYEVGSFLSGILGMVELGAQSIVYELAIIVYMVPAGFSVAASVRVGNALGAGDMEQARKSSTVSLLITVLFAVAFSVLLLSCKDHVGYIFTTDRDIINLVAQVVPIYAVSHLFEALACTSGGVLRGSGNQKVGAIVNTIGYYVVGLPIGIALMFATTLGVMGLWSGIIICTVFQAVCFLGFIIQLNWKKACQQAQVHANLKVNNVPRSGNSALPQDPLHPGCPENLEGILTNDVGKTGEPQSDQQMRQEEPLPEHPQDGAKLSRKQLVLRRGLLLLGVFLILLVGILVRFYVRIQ
Chain of UniProt P35354 (whole entry, looked up): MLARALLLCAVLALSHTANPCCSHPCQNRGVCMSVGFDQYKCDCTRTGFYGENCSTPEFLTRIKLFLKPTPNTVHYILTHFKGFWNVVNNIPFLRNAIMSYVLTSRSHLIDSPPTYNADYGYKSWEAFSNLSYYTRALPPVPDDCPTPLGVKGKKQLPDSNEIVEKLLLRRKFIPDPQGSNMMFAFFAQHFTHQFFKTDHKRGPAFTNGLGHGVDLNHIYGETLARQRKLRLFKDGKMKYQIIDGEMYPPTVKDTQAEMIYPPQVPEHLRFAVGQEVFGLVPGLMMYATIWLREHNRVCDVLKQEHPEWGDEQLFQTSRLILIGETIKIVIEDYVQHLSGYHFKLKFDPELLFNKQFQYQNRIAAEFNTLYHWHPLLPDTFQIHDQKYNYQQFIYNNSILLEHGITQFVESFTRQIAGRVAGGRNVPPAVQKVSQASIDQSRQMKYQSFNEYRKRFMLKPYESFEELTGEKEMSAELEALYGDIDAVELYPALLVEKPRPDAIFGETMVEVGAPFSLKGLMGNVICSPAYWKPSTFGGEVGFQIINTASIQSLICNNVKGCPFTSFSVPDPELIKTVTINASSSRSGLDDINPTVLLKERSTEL

Compound | target | assay | test system | conditions | IC50 [nM]
O=C(O)C(=O)C=C(O)c1cn(Cc2ccc(F)cc2)c2cc(N3CCCC3)ccc2c1=O | gag-pol integrase | concerted integration (half-site) | HIV-1 |  | 1750
CCC1=CC2Cc3nc4cccc(Cl)c4c(N)c3C(C1)C2 (stereo not shown) | ACHE (Homo sapiens, UniProt P22303) |  |  |  | 11.7
Nc1ccn([C@@H]2O[C@H](COP(=O)(O)OP(=O)(O)OP(=O)(O)O)[C@@H](O)[C@H]2F)c(=O)n1 | pyrG | enzyme activity, inhibitor |  | wild type, added: UTP 0.20 mM | 600000
O=C(NCc1ccc(F)cc1)c1nc(N2CCCCS2(=O)=O)c2cccnc2c1O | gag-pol | concerted integration (full-site) | HIV-1 |  | 55
CP(=O)(O)CCCN | GABAB receptor (rat) | binding | cerebral cortex |  | 16
CN1CCc2[nH]c3ccccc3c2CC1 | Chrna7 (Rattus norvegicus, UniProt Q05941) | inhibitor |  | added: 100 µM acetylcholine | 6400 ± 500
Ic1ccccc1CN[C@@H]1C2CCN(CC2)[C@@H]1C(c1ccccc1)c1ccccc1 (racemic) | TACR1 |  |  |  | 3.6
COc1cc2nc(N3CCN(C(=O)c4ccco4)CC3)nc(N)c2cc1OC | SLC22A1 (Homo sapiens, UniProt O15245) | transport activity, inhibitor |  | added: YM155 | 1560
CCN1C[C@H](C)n2c(c(O)c3c(=O)n(Cc4ccc(F)c(Cl)c4)nc(C(=O)NC)c32)C1=O | gag-pol | concerted integration (full-site) | HIV-1 |  | 42
C[C@H](CC[C@H](O)[C@](C)(O)CO)[C@H]1CC[C@@]2(C)C3=CC[C@H]4C(C)(C)C(=O)CC[C@]4(C)C3=CC[C@]12C | dengue virus helicase | enzyme activity, inhibitor, FRET |  |  | 500
CN(C)C(=O)C(=O)N(C)c1nc(C(=O)NCc2ccc(F)cc2)c(O)c2ncccc12 | gag-pol integrase | concerted integration (half-site) | HIV-1 |  | 700
COc1cc(OC)c(OC)cc1C=O | PTGS2 (Homo sapiens, UniProt P35354) | inhibitor |  |  | 510000
O=C(O)C1=CCCN(CCON=C(c2ccccc2)c2ccccc2)C1 | Slc6a1 (Rattus norvegicus, UniProt P23978) | inhibitor |  | historical measurement | 200
CCN(CC)CCCC(C)Nc1ccnc2cc(Cl)ccc12 (stereo not shown) | SLC47A1 (Homo sapiens, UniProt Q96FL8) | transport, inhibitor |  | MATE1, literature value, added: Metformin substrate | 2500
Nc1ccn([C@@H]2O[C@H](COP(=O)(O)OP(=O)(O)OP(=O)(O)O)[C@@H](O)[C@H]2O)c(=O)n1 | pyrG | enzyme activity, inhibitor |  | wild type, added: UTP 0.20 mM | 260000
Ic1ccccc1CN[C@@H]1C2CCN(CC2)[C@@H]1C(c1ccccc1)c1ccccc1 (racemic) | TACR1 | inhibitor |  | historical measurement | 3.6
